Experimental data pooled from the literature.
Each numbered part is a random draw from the data of one study; scales do not carry over between parts. Changes are numbered by the printed parent chain.

Set 1 — target: CCNA1, cyclin fold, Cln2 fusion (human); technique: yeast growth competition, sequencing; medium: yeast; setting: weak parent motif; relative to: not given; direction: higher = stronger binding
Starting sequence: E2F1 docking peptide (human); PPVKRRLDLETDH; partner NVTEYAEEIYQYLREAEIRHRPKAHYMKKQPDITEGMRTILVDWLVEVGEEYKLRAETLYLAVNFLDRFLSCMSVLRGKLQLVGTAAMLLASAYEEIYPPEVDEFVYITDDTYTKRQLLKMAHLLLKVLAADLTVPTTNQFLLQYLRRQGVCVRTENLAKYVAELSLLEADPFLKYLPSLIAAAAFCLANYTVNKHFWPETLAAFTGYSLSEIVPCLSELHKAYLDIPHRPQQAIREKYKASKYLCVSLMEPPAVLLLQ
| Variant | normalised enrichment score |
| --- | --- |
| H13L | 0.398 |
| D12H | 0.161 |
| R6N | 0.377 |
| R6L | 0.176 |
| H13P | 0.816 |
| P2K | 0.428 |
| D8M | 0.432 |
| V3K | 0.19 |
| L7N | 0.282 |
| P1V | 0.329 |
| P2T | 0.412 |
| R6V | 0.129 |
| K4L | 0.236 |
| E10R | 0.273 |
| P2F | 0.612 |

Set 2 — technique: DHFR PCA, dose-response; medium: yeast; setting: Hill fit, mean, not affinity; together with: (+)-ABA, dose series; direction: lower = more sensitive
Target: ABI1, truncated, D143A, DHFR fusion (Arabidopsis thaliana, UniProt P49597)
Starting sequence: PYL1, truncated, DHFR fusion (Arabidopsis thaliana, UniProt Q8VZS8); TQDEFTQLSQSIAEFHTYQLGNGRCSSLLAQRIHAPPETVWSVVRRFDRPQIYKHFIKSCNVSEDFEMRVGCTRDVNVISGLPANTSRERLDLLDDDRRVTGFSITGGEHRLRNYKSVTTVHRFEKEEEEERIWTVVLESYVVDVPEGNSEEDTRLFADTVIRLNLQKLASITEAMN
| Variant | ABA EC50 [µM] |
| --- | --- |
| T6N | 6.01 |
| L138V | 16.4 |
| R46Q | 4.04 |
| E125K | 1.91 |
| F5Y | 8.24 |
| T6I | 5.65 |
| A35T | 34.6 |
| Y141W | 90.1 |
| K168Q | 2.5 |
| E152D | 1.73 |
| V136G | 648 |
| D65A | 4.13 |
| R98T | 18.6 |
| I12F | 77.4 |
| V121L | 8.29 |
| D65R | 4.64 |
| A13Q | 4.24 |

Set 3 — technique: protein binding microarray; form: double-stranded DNA, one strand shown; medium: in vitro; concentration: not given; relative to: not given; direction: higher = stronger binding
Target: Histone acetyltransferase KAT6A, both winged helices, GST fusion (KAT6A, Homo sapiens, UniProt Q92794, residues 1-181)
Setting: 8-mer, flanks averaged, mean of 2 arrays, mostly near background
Residues (chain): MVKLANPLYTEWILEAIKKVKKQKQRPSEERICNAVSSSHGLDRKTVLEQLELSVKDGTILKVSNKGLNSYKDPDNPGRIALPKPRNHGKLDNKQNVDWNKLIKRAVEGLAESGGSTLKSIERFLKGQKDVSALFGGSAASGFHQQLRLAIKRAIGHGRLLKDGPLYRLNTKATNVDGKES
| Oligonucleotide | E-score |
| --- | --- |
| GGGGATGA | -0.138 |
| AAATAAGA | -0.0504 |
| AGATATGG | -0.151 |
| AGATTGCA | -0.0753 |
| CACTACAA | -0.116 |
| CCCTTCGG | -0.0302 |
| ACGCTACC | 0.181 |
| AGTGTTCA | 0.0231 |
| CTTGGTAA | -0.178 |
| GGGCACCA | -0.0887 |
| CATATTTC | -0.178 |
| ATAATATA | -0.0185 |
| CCATACCG | 0.164 |
| ACCCGAGA | -0.0237 |
| CGCACAAC | 0.183 |

Further values, each from its own experiment
| Molecule | target | test | test system | conditions | how to read | measurement | value |
| --- | --- | --- | --- | --- | --- | --- | --- |
| PhoQ, residues 284 288 289 292 302 303 TGYLSA | PhoP, residues 12 14 15 18 19 SGWQI (Escherichia coli, UniProt P23836) | Sort-seq, measured: YFP reporter | E. coli | PhoQ-PhoP variant library, together with: 10 µM Mg2+ | relative to: high Mg2+ state, higher = stronger signaling | fold induction | 8.4 |

Some of these lines once more (set 2):
| Variant | ABA EC50 [µM] |
| --- | --- |
| R46Q | 4.04 |
| E125K | 1.91 |
| F5Y | 8.24 |
| T6I | 5.65 |
| A35T | 34.6 |
| Y141W | 90.1 |
| K168Q | 2.5 |
